{"data": "Results pooled from the literature", "note": "Each numbered part is a random draw from the data of one study; scales do not carry over between parts."}
{"data": "Block 1", "target": "Replicase polyprotein 1ab, main protease (rep, Severe acute respiratory syndrome coronavirus 2, UniProt P0DTD1)", "observed": "enzyme activity", "mode": "inhibitor", "concentration": "20 µM", "setting": "hit confirmation"}
{"Structure (SMILES)": "Cc1sc(N)c(C(=O)c2cccc(C(F)(F)F)c2)c1C", "inhibition [%]": 23}
{"Structure (SMILES)": "O=C(O)/C=C/c1ccc(O)c(O)c1", "inhibition [%]": -15.5}
{"Structure (SMILES)": "Nc1nc(S)c2ncn([C@@H]3O[C@H](CO)[C@@H](O)[C@H]3O)c2n1", "inhibition [%]": 79.6}
{"data": "Block 2", "cell line": "HEK-293T", "organism": "VSV pseudotyped with SARS-CoV-2 spike", "concentration": "10 µM", "time": "16 h"}
{"SMILES": "O=C(CCCN1CCC(O)(c2ccc(Cl)cc2)CC1)c1ccc(F)cc1", "pseudovirus infection": "87.1%"}
{"SMILES": "O=C(O)COCCN1CCN(C(c2ccccc2)c2ccc(Cl)cc2)CC1 (stereo not shown)", "pseudovirus infection": "83.2%"}
{"SMILES": "CC(C)CN(C[C@@H](O)[C@H](Cc1ccccc1)NC(=O)O[C@H]1CO[C@H]2OCC[C@H]21)S(=O)(=O)c1ccc(N)cc1", "pseudovirus infection": "84.9%"}
{"data": "Block 3", "target": "Centromere-binding protein 1, full length, N-terminal tag (CBF1, Saccharomyces cerevisiae, UniProt P17106, residues 1-351)", "technique": "protein-binding microarray", "molecule type": "double-stranded DNA, one strand shown", "medium": "in vitro", "concentration": "0.8 µM", "setting": "whole 60-bp probe, no competitor", "reading": "higher = stronger binding", "all sequences stand within": "… GTCTTGATTCGCTTGACGCTGCTG", "chain of UniProt P17106 (whole entry, looked up)": "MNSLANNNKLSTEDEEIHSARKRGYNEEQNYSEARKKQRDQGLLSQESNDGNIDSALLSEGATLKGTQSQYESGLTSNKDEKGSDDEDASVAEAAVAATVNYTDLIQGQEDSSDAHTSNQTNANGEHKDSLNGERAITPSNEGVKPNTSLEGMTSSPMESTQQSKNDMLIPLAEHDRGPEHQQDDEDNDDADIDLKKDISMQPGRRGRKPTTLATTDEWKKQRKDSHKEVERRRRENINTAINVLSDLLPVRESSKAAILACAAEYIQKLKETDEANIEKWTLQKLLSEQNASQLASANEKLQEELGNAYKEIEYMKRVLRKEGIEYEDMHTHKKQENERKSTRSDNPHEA"}
{"Strand": "GAATATCATTTCTAGCGTGCGTTAGTGTTATTATAG", "fluorescence intensity": "511 a.u."}
{"Strand": "TGTACGAAGCTATGTCTCATGATTATAGTAGTTAGG", "fluorescence intensity": "612 a.u."}
{"Strand": "GAAAAATTCCCCAAGAAGGTGACCTATACATGATAG", "fluorescence intensity": "539 a.u."}
{"Strand": "GAATACACTAAAACACATGCACGCCACGGAGTATAG", "fluorescence intensity": "659 a.u."}
{"Strand": "GAAGTTACCTCCAGGTGATTGCTGTCTTTATGCTAG", "fluorescence intensity": "537 a.u."}
{"Strand": "TGTACGAAGCTATAACACGTGTGTATAGTAGTTAGG", "fluorescence intensity": "6390 a.u."}
{"Strand": "CTATACACGTGATTTAATATATCCTGTTTTTTTTTC", "fluorescence intensity": "12000 a.u."}
{"Strand": "TGTACGAAGCTATGTCACGACTCTATAGTAGTTAGG", "fluorescence intensity": "672 a.u."}
{"data": "Block 4", "target": "Interferon regulatory factor 5, full length, phosphomimetic (IRF5, Homo sapiens, UniProt Q13568-2, residues 1-514, K96S/S451D/S453D/S456D/S462D)", "technique": "protein-binding microarray", "molecule type": "double-stranded DNA, one strand shown", "medium": "in vitro", "concentration": "250 nM", "setting": "60-bp whole probe", "added": "salmon DNA 0.4 mg/ml", "reference": "random background probes", "reading": "higher = stronger binding", "all sequences stand within": "GCCTAGCAC … GTCTTGATTCGCTTGACGCTGCTG"}
{"Strand": "TTAGATATCGTGTATCGATTAGTGCTA", "log fluorescence [z-score]": 3.92}
{"Strand": "TTAGGACTGCACTTTCGGTTAGTGCTA", "log fluorescence [z-score]": 9.49}
{"Strand": "GACGGTTTCGTTTTCCTGACGTGCTAG", "log fluorescence [z-score]": 6.99}
{"Strand": "TCTAATCTCACTCTGTCCCTGTGCTAG", "log fluorescence [z-score]": 0.608}
{"Strand": "TCATATACACTTATGACACTGTGCTAG", "log fluorescence [z-score]": 0.575}
{"Strand": "TTGGGTTTCGGTATCGGTTAGTGCTAG", "log fluorescence [z-score]": 10.9}
{"Strand": "TTACATTCCAGTTTCGATTAGTGCTAG", "log fluorescence [z-score]": 9.93}
{"Strand": "TCATTTCTACGTCTGATACTGTGCTAG", "log fluorescence [z-score]": 1.38}
{"data": "Block 5", "target": "Replicase polyprotein 1ab, polymerase (rep, Severe acute respiratory syndrome coronavirus 2, UniProt P0DTD1)", "observed": "enzyme activity", "mode": "inhibitor", "concentration": "20 µM"}
{"SMILES": "O=C1c2ccccc2S(=O)(=O)N1CCCCN1CCN(c2ncccn2)CC1", "inhibition [%]": -10.5}
{"SMILES": "CC(C)Nc1cc(-c2c[nH]c(C(=O)N[C@H](CO)c3cccc(Cl)c3)c2)c(Cl)cn1", "inhibition [%]": 1.08}
{"SMILES": "CSc1nc2ccc3nc(NC(=O)C(c4ccccc4)c4ccccc4)sc3c2s1", "inhibition [%]": -16.2}
{"SMILES": "Cc1cccc(C(=O)O)c1O", "inhibition [%]": 2.32}
{"SMILES": "OCCCNc1ccccc1", "inhibition [%]": 1.07}
{"SMILES": "CCCN(CCC)CCc1cccc2c1CC(=O)N2", "inhibition [%]": -1.89}
{"SMILES": "Cc1cccc(C)c1OCC(=O)N[C@@H](Cc1ccccc1)[C@@H](O)C[C@H](Cc1ccccc1)NC(=O)[C@H](C(C)C)N1CCCNC1=O", "inhibition [%]": 4.7}
{"SMILES": "Cc1cccc(NC(=O)c2ccc(C(F)(F)F)cc2C(=O)O)n1", "inhibition [%]": -0.64}
{"SMILES": "CC(C)c1cccc2c(-c3ccccc3)cc(-c3ccc(-c4ccc(C(=O)O)cc4)[nH]3)nc12", "inhibition [%]": 5.65}
{"SMILES": "CC(C)=CCC/C(C)=C/CC/C(C)=C/CC[C@]1(C)CCc2cc(O)cc(C)c2O1", "inhibition [%]": 1.88}
{"SMILES": "C[C@H](CCC(=O)O)[C@H]1CC[C@H]2[C@@H]3C(=O)C[C@@H]4CC(=O)CC[C@]4(C)[C@H]3CC(=O)[C@]12C", "inhibition [%]": 1.91}
{"SMILES": "CCOC(=O)c1c(C)n(C)c2ccc(O)cc12", "inhibition [%]": -0.66}
{"SMILES": "CN1CCN(C(=O)O[C@H]2c3nccnc3C(=O)N2c2ccc(Cl)cn2)CC1", "inhibition [%]": -1}
{"SMILES": "Cn1nnc2c(C(N)=O)ncn2c1=O", "inhibition [%]": 3.79}
{"SMILES": "CC(C)(C)NCc1cc(Nc2ccnc3cc(Cl)ccc23)c2c(c1O)CCCC2", "inhibition [%]": 28}
{"SMILES": "Cc1cc(CC(C)CC(C)(C)C)n(O)c(=O)c1 (stereo not shown)", "inhibition [%]": 3.2}
{"SMILES": "CCOC(=O)CCNc1cc(N2CCc3ccccc3CC2)nc(-c2ccccn2)n1", "inhibition [%]": 15}
{"SMILES": "Clc1ccc(C(OCCN2CCCCC2)c2ccccc2)cc1 (stereo not shown)", "inhibition [%]": -3.14}
{"SMILES": "CC(OC(=O)NCC1(CC(=O)O)CCCCC1)OC(=O)C(C)C (stereo not shown)", "inhibition [%]": -4.15}
{"SMILES": "Oc1ccc(O)cc1", "inhibition [%]": -3.23}
{"SMILES": "C[C@@H]1C/C=C/C=C/C=C/C=C/[C@H](O[C@@H]2O[C@H](C)[C@@H](O)[C@H](N)[C@@H]2O)C[C@@H]2O[C@](O)(C[C@@H](O)C[C@H]3O[C@@H]3/C=C/C(=O)O1)C[C@H](O)[C@H]2C(=O)O", "inhibition [%]": -11.1}
{"SMILES": "CN1[C@H]2C[C@H](OC(=O)[C@H](CO)c3ccccc3)C[C@@H]1[C@@H](O)C2 (racemic)", "inhibition [%]": 2.78}
{"SMILES": "O=C(O)c1ccccc1C(=O)Nc1ccc(S(=O)(=O)Nc2nccs2)cc1", "inhibition [%]": 22.9}
{"SMILES": "COc1cc2c(cc1OC(C)C)[C@H](c1ccc(Cl)cc1)N(c1ccc(N(C)C[C@H]3CC[C@H](N4CCN(C)C(=O)C4)CC3)cc1)C(=O)C2", "inhibition [%]": -2.87}
{"SMILES": "CCCc1cc(C(N)=S)ccn1", "inhibition [%]": 4.09}
{"data": "Block 6", "target": "RING finger protein unkempt homolog, zinc fingers 1-6, GST-SBP tag (UNK, Homo sapiens, UniProt Q9C0B0, residues 30-357)", "technique": "RNA Bind-n-Seq", "molecule type": "RNA", "medium": "in vitro", "concentration": "not given", "setting": "RNA with constant flanks, human and mouse sites, ends assumed", "reference": "input RNA pool", "reading": "higher = stronger binding", "all sequences stand within": "GGGAGUUCUACAGUCCGACGAUC … CAACAGAGGAUUGAGCAUCA", "chain of UniProt Q9C0B0 (30-357, looked up)": "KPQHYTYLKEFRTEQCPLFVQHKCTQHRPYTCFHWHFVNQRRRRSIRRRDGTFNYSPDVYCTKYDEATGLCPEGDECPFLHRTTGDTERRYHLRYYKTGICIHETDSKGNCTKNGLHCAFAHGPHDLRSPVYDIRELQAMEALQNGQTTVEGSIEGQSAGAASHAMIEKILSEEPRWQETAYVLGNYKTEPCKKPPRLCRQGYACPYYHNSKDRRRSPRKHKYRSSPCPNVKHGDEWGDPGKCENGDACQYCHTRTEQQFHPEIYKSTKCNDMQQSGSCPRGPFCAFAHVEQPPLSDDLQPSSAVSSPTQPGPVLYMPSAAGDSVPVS"}
{"Strand": "GAAGACCCAUACCCACACAAGUUCCAUGUAGACAUCUCACUCACUGACUUCAUCCAAAAAUAUAGUCACCUGCAGCCUGGGGAUCACCUGACUGACAUCACCUUAAAGGUGGCAGGUAGG", "bound/input enrichment [ratio]": 0.456}
{"Strand": "CCUCGUCCGGUGAUGACAUCAGAGGAUAGUGGCUUGUUCAGCCCUAUUCGAACCUCAGCUUUUAGUCCUCCUGGAAGCUGUACUCCUGCUGAAUGGUUUUGCCAAACAGAUACUAGUGAA", "bound/input enrichment [ratio]": 0.274}
{"Strand": "GUAUUGAACUUCACAGCCUUGCUCAUUGAGUACAGCUUUUCUCGGCAUCUGUACAGUUCCAUAGAGCAUUUGACAACUUUAUUGGCUUCCUCUGAUAUGCAAGUGGUGCUGGCAGUCCUU", "bound/input enrichment [ratio]": 0.455}
{"Strand": "GACUCUCAUGUCAUUUGUAUACCUGUGGAUCUGCCCUGUAUUGUUAAUUCUAUUUUACAAAAUAGAGGAAGUGUCUAAUAUAUGUGCAUAGUCAGUUGUCCUUUUUGAAAAAUAGGUUGA", "bound/input enrichment [ratio]": 0.193}
{"Strand": "UUAAAGCUGGUUGGGAAUUAUGUAAGAAAUAUACGGCAUUAUGAAAUUACAAAACAAGAUAUUAAAGUGGCAAUGUGUGCUGACAAGGUAUUGAUGGAUAUGUUUCAUCAAGAUGUAGAA", "bound/input enrichment [ratio]": 1}
{"Strand": "UUCCCCCUACUGAGACAGUUCCUCAGGUCAAAAAAGAAAAACAUAGCACACAAGCUAAAAAUAGAGCAAAAAGGAAACCUCCAAAAGGAAUGUUUCUUUCUCAAGAAGAUGUGGAGGCUG", "bound/input enrichment [ratio]": 0.695}
{"Strand": "ACUGUGCUUCAAGCGGUGUCUGCUUUUGGGGCAGAGUUUUCAUCGGAGGCAUGCAGAGAGUUAGGCUUUUCUAGCAACUUGCUUUGCAGCUCUUGUGAUCUUCUCGGACAGUUCAACCUG", "bound/input enrichment [ratio]": 0.0834}
{"Strand": "CAGAAACUUUGUGAAAUUGAGAGGAUACAUUUUUUUCUAAGUAAGAAGAAAACCGAUGAACUUAGAAAUCUACACAAACUGCUUUACAACAGGCCAGGCACUGUGUCCUCAUUAAAGAAG", "bound/input enrichment [ratio]": 0.161}
{"note": "For quick reference, copied from above (block 5):"}
{"SMILES": "C[C@H](CCC(=O)O)[C@H]1CC[C@H]2[C@@H]3C(=O)C[C@@H]4CC(=O)CC[C@]4(C)[C@H]3CC(=O)[C@]12C", "inhibition [%]": 1.91}
{"SMILES": "CCOC(=O)c1c(C)n(C)c2ccc(O)cc12", "inhibition [%]": -0.66}
{"SMILES": "CN1CCN(C(=O)O[C@H]2c3nccnc3C(=O)N2c2ccc(Cl)cn2)CC1", "inhibition [%]": -1}
{"SMILES": "Cn1nnc2c(C(N)=O)ncn2c1=O", "inhibition [%]": 3.79}
{"SMILES": "CC(C)(C)NCc1cc(Nc2ccnc3cc(Cl)ccc23)c2c(c1O)CCCC2", "inhibition [%]": 28}
{"SMILES": "Cc1cc(CC(C)CC(C)(C)C)n(O)c(=O)c1 (stereo not shown)", "inhibition [%]": 3.2}
